Results of several laboratories.
Parts stem from different laboratories: compare values within a part only.

Series 1 — method: RNA Bind-n-Seq; molecule type: RNA; matrix: in vitro; tested at: 365 nM; relative to: no-protein control; reading: higher = stronger binding
Target: RNA binding protein fox-1 homolog 2, RRM domain, GST-SBP tag (RBFOX2, Homo sapiens, UniProt O43251-10, residues 100-194)
Setting: natural RNA segment, single round, ends assumed
Target sequence (chain): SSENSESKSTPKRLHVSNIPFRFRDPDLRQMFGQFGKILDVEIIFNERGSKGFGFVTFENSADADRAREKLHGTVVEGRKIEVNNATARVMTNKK
| Oligonucleotide | RBNS enrichment (R) |
| --- | --- |
| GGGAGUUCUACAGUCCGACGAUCGAAGUUGGCUGACACAGCUUAGCUUGGUUUUGCUUAUUCAAAAGAGAAAAUAACUACACAUGGAAAUGAAACUAGCUGAAGCCUUUUCUUGUUUUAGCAACUGAAAAUUGUGGAAUUCUCGGGUGCCAA | 0.344 |
| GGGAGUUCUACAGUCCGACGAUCAGAAAUAAAGUGCAUGAACUGUUCUCUGCUAUAUCCUAGUCUCCCACACAGUGCGAGUCGGAGUGAGUCCCGCUGGUCCUGCCCAUGCAGGGCACAGAGCUGGCUCACCCUGGAAUUCUCGGGUGCCAA | 27.3 |
| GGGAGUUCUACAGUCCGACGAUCGACGAUGUUCUAAUAUAACACUGAAGUGCUUCAUUGUAUCCCAACAGUUUACCUUCAAGUAAUAUUAUCUUUAUUUUUAGGCUAAGCACGUUUGAUUAUUUUGUCUGUCUUGGAAUUCUCGGGUGCCAA | 0.253 |
| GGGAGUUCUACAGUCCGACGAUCAAUGUAUAAAGUAACACCCAAAUGUUAUUAGAAACUAGUCUUUUAGUAUUUGUAAUUUUCAACUCUUAUUGUGUUACUUUGUGUGAAAAUUUUUAGUCAAAAGUGCUUGGUGGAAUUCUCGGGUGCCAA | 0.65 |
| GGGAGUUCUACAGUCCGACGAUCCCCUAGACUAAGUUAAAUAUUUCUGCACAGUGUUCCCAUGGCCCCUUGCAUUUCCUUCUUAACUCUCUGUUACACGUCAUUGAAACUACACUUUUUUGGUCUGUUUUUGUUGGAAUUCUCGGGUGCCAA | 0.94 |
| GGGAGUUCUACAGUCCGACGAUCCUACCAACUGAGCUACAUCCCCAGCCUUCAGUCCCCACCCCCGAGUCCAGAGACAGGUCUCAUGUGACACUGGACAACCCUGCCAUCACUAGCAUGUGAACCUGGUCCUAUGGAAUUCUCGGGUGCCAA | 0.769 |
| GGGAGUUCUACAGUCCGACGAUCGGUGUCGGUGUCAUUGUCUCAGCUCAAAGAGCCACCUGCUUCAGAUACCAUGGGCAUGUGCUGAGUGGAUGCACCAGGGGGCAGCACAGCUCCAUGAUUCCCAGUGGGGCUGGAAUUCUCGGGUGCCAA | 0.618 |
| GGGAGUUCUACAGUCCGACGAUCAGUUUUACAGAAAUUUGGCUGCACUCUGAGAGUGCUUACUCACAGUUUAUUUGCUUUUUUUAAAAAGGAGAUUAUUCUAAAAUAUAAACUUAUUUGCAUAUAUUGGAGGAUGGAAUUCUCGGGUGCCAA | 0.606 |
| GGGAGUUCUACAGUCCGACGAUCUUUACAGACGAGAAAACUAAGGCACAAAGUUUAACUUGCCCCAAGCGACAGAGUGGAUAAGUAAAAGGGCGAGGACUGGGACCCUGGUACUCUGAAUGAAGAGCCUGUGCUGGAAUUCUCGGGUGCCAA | 0.661 |

Series 2 — method: protein-binding microarray; molecule type: double-stranded DNA, one strand shown; matrix: in vitro; tested at: 250 nM; setting: 60-bp whole probe; together with: salmon DNA 0.4 mg/ml; relative to: random background probes; reading: higher = stronger binding; constant ends, left off below: GCCTAGCAC … GTCTTGATTCGCTTGACGCTGCTG
Target: Interferon regulatory factor 7, full length, phosphomimetic (IRF7, Homo sapiens, UniProt Q92985, residues 1-503, S101K/S471D/S472D/S475D/S476D/S477D/S483D/S484D/S487D)
Target sequence (chain): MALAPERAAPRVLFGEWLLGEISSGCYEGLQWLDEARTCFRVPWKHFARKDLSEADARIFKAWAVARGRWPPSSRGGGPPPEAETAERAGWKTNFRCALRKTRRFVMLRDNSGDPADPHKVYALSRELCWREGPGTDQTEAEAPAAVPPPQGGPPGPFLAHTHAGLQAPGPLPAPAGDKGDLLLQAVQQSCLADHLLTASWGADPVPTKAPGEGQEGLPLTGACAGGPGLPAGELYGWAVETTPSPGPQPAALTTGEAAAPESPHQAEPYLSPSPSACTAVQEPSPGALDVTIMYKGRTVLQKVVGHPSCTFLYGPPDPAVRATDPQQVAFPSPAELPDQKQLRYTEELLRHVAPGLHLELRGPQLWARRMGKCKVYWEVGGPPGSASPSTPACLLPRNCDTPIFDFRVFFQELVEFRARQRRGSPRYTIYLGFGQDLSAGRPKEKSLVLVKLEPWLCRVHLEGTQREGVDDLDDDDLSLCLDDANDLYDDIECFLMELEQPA
| Oligonucleotide | log fluorescence [z-score] |
| --- | --- |
| TTAGATTTCAGACTGGATTTGTGCTAG | -0.0524 |
| TCATATATGTATATATGACTGTGCTAG | 0.645 |
| GCGATTTGAGGAGCTCGCTCGTGCTAG | -0.0379 |
| TTAGGTCTCCTTCTCCATTAGTGCTAG | 0.588 |
| TTAGGACTGTGGACTGGGTTAGTGCTA | -0.565 |
| TTAGGACTGGGTCTCGGTTAGTGCTAG | 1.07 |
| TTGGGTTTCCTACTGCTTTAGTGCTAG | 0.654 |
| GACGGATTGGGGTATCGGGACGTGCTA | -0.461 |
| GACGGTTTCGGTTTCGGAACGTGCTAG | 14.9 |
| GACGGTTTCCTACTGCTGCCGTGCTAG | 1.35 |
| TTTTTTATCAATCATTTTAGTGTGCTA | 1 |
| GACGGTCTCCTTCTCATGACGTGCTAG | 0.247 |
| TCAGATATCGGGACTGGATTAGTGCTA | -0.0815 |
| CTAGGTTTCGGTATCGGTTAGTGCTAG | 11.1 |
| TTAGGACTGGGTGTCGGTTAGTGCTAG | -0.348 |
| TTAGGTTTCGACACTGGATTAGTGCTA | 3.78 |
| TTAGAACCGAGTCTCGATTAGTGCTAG | 2.12 |
| GACGATCGCAGTTTCGAGACGTGCTAG | 3.3 |
| TCACTTTTTGCTTTCTTACTGTGCTAG | 1.56 |
| TTAGGTATCAACTTTCGGTTAGTGCTA | 1.43 |

Series 3 — method: RNA Bind-n-Seq; molecule type: RNA; matrix: in vitro; tested at: 200 nM; setting: whole 134-nt RNA, ends assumed; together with: 150 mM LiCl; relative to: input library; reading: higher = stronger binding; library: 7-deaza-guanosine replaces G
Target: Ras GTPase-activating protein-binding protein 1, full length (G3BP1, Homo sapiens, UniProt Q13283)
Chain of UniProt Q13283 (whole entry, looked up): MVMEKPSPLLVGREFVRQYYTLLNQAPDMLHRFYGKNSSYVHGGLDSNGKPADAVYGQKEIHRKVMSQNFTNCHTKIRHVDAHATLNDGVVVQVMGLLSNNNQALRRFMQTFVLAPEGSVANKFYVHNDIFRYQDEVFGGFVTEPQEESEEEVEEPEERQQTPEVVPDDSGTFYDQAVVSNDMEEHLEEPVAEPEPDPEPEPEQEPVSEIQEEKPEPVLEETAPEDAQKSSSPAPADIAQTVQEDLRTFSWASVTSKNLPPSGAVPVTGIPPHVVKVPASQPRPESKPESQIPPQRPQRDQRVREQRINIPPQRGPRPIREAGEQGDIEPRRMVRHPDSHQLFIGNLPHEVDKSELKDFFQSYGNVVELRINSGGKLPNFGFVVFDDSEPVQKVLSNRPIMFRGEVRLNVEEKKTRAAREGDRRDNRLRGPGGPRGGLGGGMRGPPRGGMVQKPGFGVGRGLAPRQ
| Oligonucleotide | log2 enrichment |
| --- | --- |
| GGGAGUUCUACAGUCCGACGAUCCUGUGCUACACAUCGUAUGUACCGAAUCGGUUUUUUUGGGUUUUUUUGGGGUUUUUUUGGGAAAGUAUUAUGUUACGCCGUUCGGAUCUGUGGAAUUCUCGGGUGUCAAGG | 1.16 |
| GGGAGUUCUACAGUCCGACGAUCCUGUGCUACACAUCGUAUGUACCGAAUCGGGGAAAAAAGGGGAAAAAAGGGGAAAAAAGGGGAAAGUAUUAUGUUACGCCGUUCGGAUCUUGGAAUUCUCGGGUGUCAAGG | 0.749 |
| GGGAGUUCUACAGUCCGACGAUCGUCCUGUGCUACACAUCGUAUGUACCGAAUCGGUUUUUGGGGUUUUUGGUUUUUGGGGAAAGUAUUAUGUUACGCCGUUCGGAUCUGCACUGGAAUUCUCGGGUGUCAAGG | -0.612 |
| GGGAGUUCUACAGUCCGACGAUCACCAUGCAGGUGGGCAUCUUUGGGAAGUGGGGCAAGGGGGGGAUAGGGAGGGGGGUAACACUUUGGGAACAGGUGGUCCCAAAACGUUUCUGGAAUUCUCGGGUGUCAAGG | 0.424 |
| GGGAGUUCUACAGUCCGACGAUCAAGUCCUGUGCUACACAUCGUAUGUACCGAAUCGGGUUUUGGUUUUGGGUUUUGGGAAAGUAUUAUGUUACGCCGUUCGGAUCUGCACUUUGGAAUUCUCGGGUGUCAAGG | -0.542 |
| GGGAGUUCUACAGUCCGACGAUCCUGUGCUACACAUCGUAUGUACCGAAUCGGGUUUUUUUGGGUUUUUUUGGGGUUUUUUUGGAAAGUAUUAUGUUACGCCGUUCGGAUCUGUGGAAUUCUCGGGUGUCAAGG | 1.42 |
| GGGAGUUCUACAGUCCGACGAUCCUGUGCUACACAUCGUAUGUACCGAAUCGGGGCCCCCCGGGGCCCCCCGGGGCCCCCCGGGAAAGUAUUAUGUUACGCCGUUCGGAUCUGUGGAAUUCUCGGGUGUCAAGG | -1.35 |
| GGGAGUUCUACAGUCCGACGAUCCCUCAAGUCCUGUGCUACACAUCGUAUGUACCGAAUCGGUGGAAAAAGGUGGAAAGUAUUAUGUUACGCCGUUCGGAUCUGCACUUCCAGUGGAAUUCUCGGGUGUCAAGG | 0.409 |
| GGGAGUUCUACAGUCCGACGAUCAGUCCUGUGCUACACAUCGUAUGUACCGAAUCGGGGUUUUUGGGGUUUGGGGAGGGGAAAGUAUUAUGUUACGCCGUUCGGAUCUGCACUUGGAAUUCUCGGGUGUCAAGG | -0.195 |
| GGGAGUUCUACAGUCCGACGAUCUGGCCCUGGUGGCAUGCGGGGAGGAAGAGGUGGCCUCAUGGAUCGUGGUGGUCCCGGUGGAAUGUUCAGAGAUGGCCGUGGUGGAGACAGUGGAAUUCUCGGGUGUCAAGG | 0.095 |
| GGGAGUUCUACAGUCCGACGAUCCUGUGCUACACAUCGUAUGUACCGAAUCGGGGAAAGGGGUUUUUUUGGGGAAAAAAAGGGGAAAGUAUUAUGUUACGCCGUUCGGAUCUGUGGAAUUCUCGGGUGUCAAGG | 0.312 |

Series 4 — method: protein binding microarray; molecule type: double-stranded DNA, one strand shown; matrix: in vitro; tested at: not given; relative to: not given; reading: higher = stronger binding
Target: Histone acetyltransferase KAT6A, winged helix 1, GST fusion (KAT6A, Homo sapiens, UniProt Q92794, residues 1-85)
Setting: 8-mer, flanks averaged, mean of 2 arrays, mostly near background
Construct (chain): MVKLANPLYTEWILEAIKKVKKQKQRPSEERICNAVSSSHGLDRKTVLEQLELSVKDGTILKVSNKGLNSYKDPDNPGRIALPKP
| Oligonucleotide | E-score |
| --- | --- |
| GCAGTAAC | -0.0321 |
| GAAGCTAA | -0.117 |
| CAGGGAAC | -0.218 |
| AGTTGGTA | -0.263 |
| GACAACCC | -0.0658 |
| GCCATCCA | -0.0381 |
| CAACCCAA | -0.258 |
| CCAAATAG | -0.258 |
| ACAGAGAC | -0.0392 |
| ACGCACTA | 0.171 |
| CACGGTTA | 0.129 |
| GAGATCTC | 0.0993 |
| ACTCACCC | -0.0243 |
| ACATCTAA | -0.159 |
| TGCTAGCA | 0.0481 |
| ATGGCACC | 0.109 |
| AGCGGAAG | 0.207 |
| GACTGAGC | -0.0062 |
| CTCGGAAC | 0.0513 |
| CGGCGACA | 0.318 |
| ATGTTTGG | -0.0417 |
| ATTGGGGG | -0.246 |
| AAGTATAC | -0.0659 |
| CCCAAACG | -0.0499 |
| AAACCTGC | -0.191 |

Excerpt of the above (series 2):
| Oligonucleotide | log fluorescence [z-score] |
| --- | --- |
| TTAGGTCTCCTTCTCCATTAGTGCTAG | 0.588 |
| TTAGGACTGTGGACTGGGTTAGTGCTA | -0.565 |
| TTAGGACTGGGTCTCGGTTAGTGCTAG | 1.07 |
| TTGGGTTTCCTACTGCTTTAGTGCTAG | 0.654 |
| GACGGATTGGGGTATCGGGACGTGCTA | -0.461 |
| GACGGTTTCGGTTTCGGAACGTGCTAG | 14.9 |
| GACGGTTTCCTACTGCTGCCGTGCTAG | 1.35 |
